# Experimental data collected from several papers.
# Each numbered part is a random draw from the data of one study; scales do not carry over between parts.

# Series 1
# Target: Ras GTPase-activating protein-binding protein 1, C-terminal RGG region (G3BP1, Homo sapiens, UniProt Q13283)
# Chain of UniProt Q13283 (whole entry, looked up): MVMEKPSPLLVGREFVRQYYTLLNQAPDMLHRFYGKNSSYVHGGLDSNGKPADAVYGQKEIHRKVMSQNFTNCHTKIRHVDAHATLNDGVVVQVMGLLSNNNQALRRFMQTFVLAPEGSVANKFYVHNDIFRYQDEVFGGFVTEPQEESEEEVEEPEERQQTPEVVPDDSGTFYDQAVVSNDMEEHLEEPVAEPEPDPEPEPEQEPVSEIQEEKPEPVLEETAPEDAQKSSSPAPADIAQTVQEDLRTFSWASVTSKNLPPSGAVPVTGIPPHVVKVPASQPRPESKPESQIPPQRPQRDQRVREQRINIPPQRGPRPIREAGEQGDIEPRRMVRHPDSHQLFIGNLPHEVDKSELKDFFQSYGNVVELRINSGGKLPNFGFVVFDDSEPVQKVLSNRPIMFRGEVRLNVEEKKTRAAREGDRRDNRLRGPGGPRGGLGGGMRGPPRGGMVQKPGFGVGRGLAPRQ
# Technique: RNA Bind-n-Seq
# Form: RNA
# Matrix: in vitro
# Tested at: 1 µM
# Setting: whole 134-nt RNA, ends assumed
# Together with: 150 mM KCl
# Reference: input library
# Direction: higher = stronger binding
# All sequences stand within: GGGAGUUCUACAGUCCGACGAUC … UGGAAUUCUCGGGUGUCAAGG
Sequence,log2 enrichment
UGGCCCUGGUGGCACGCGGGGAGGAAGAGGUGGCCUCAUGGAUCGUGGUGGUCCCGGUGGAAUGUUCAGAGGUGGCCGUGGUGGAGACAG,1.9
UGGCCCUGGUGGCAUGCGGGGAGGAAGAGGUGGCCUCAUGGAUCGUGGUGGUCCCGGUGGAAUGUUCAGAGGUGGCUGUGGUGGAGACAG,3.29
GUCCUGUGCUACACAUCGUAUGUACCGAAUCGGGGAAAGGGGUGGGGAAAAAAAGGGGAAAGUAUUAUGUUACGCCGUUCGGAUCUGCAC,1.45
AAGUCCUGUGCUACACAUCGUAUGUACCGAAUCGGUUUGGAAAAAAAGGUUUUUGGAAAGUAUUAUGUUACGCCGUUCGGAUCUGCACUU,-2.25
AGUCCUGUGCUACACAUCGUAUGUACCGAAUCGGGAGGGUUUUUUUGGGUUUUUGGGAAAGUAUUAUGUUACGCCGUUCGGAUCUGCACU,-0.526
CACAGACAACAUGCACCCACACAGACACAGAGGGAAGGGGUUGGGAUGGGGACAGGGUGCACAGCAGGGCGGGGUAGGACCCCAGCCCCU,-0.545
UCAAGUCCUGUGCUACACAUCGUAUGUACCGAAUCGGGUGGGUUUGGGAAAGGGAAAGUAUUAUGUUACGCCGUUCGGAUCUGCACUUCC,1.65
GCAGGAAGUAAAAAAAAAUGGAAAUGCUUCGGAUAGUGGCAGGGGUGGGGGUUGCUAAGGAAAGGGUGGGAUGGGAGUGGGUAAAGAGUU,1.91
GCUGUUGGAGUGGAUCCGCCGCACAAUCCCGUGGCUGGAGAACCGGGUGCCCGAGAACACCAUGCAUGCCAUGCAACAGAAGCUGGAGGA,-2.2

# Series 2
# Target: PABPC1L2, full length, GST fusion (mouse, UniProt A0ABA7IW68)
# Technique: RNAcompete
# Form: RNA
# Matrix: in vitro
# Tested at: 20 nM
# Setting: 7-mer, probes averaged, single round
# Reference: mean of 7-mers
# Direction: higher = stronger binding
# Target sequence (chain): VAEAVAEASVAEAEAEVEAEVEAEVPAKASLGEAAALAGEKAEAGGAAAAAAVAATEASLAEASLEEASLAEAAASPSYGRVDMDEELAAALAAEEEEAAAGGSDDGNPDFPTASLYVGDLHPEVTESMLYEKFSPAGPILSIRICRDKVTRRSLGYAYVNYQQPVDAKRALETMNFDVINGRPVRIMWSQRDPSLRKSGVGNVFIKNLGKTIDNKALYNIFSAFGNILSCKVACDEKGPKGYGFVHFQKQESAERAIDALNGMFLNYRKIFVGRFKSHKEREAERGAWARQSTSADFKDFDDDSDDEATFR
Sequence,7-mer Z-score
CACCUUU,-0.289
GCAUUCG,-0.231
GGAGCCG,-0.162
GAGUUAA,0.017
AGCGAUG,0.0569
GGUCCAA,0.0515
GGCUUGU,-0.141
GGUAUCC,-0.211
UCGGCUC,-0.409
AAUAUUC,-0.171
UUACACG,-0.106
GGCCAGC,-0.0699
UCCAGUU,-0.396
AUGUGCA,-0.0518
GGGAACC,0.0388
ACAUCCG,-0.186
CUUUAGU,-0.0971
UCAAAUU,-0.0881
AGUCCUU,-0.302
GUAUGAU,-0.159
GAUCUUG,-0.257
CGCGUUA,-0.349
AAUGCUG,0.0805
ACAUUAC,0.00979
GUCAGAC,-0.289

# Series 3
# Target: Histone acetyltransferase KAT6A, winged helix 1, GST fusion (KAT6A, Homo sapiens, UniProt Q92794, residues 1-85)
# Technique: protein binding microarray
# Form: double-stranded DNA, one strand shown
# Matrix: in vitro
# Tested at: not given
# Setting: 8-mer, flanks averaged, mean of 2 arrays, mostly near background
# Reference: not given
# Direction: higher = stronger binding
# Construct (chain): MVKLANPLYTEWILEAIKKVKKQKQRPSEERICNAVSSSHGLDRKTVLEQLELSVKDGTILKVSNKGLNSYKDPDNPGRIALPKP
Sequence,E-score
GCTGGTAA,-0.0213
GGTCTAAA,-0.184
CATGATCC,0.0392
ACCCGCAA,0.212
AGTGTAGC,0.0201
GCGCTATA,0.302
AACTTAAC,-0.118
AAGCACAG,-0.0902
ACCTGTAG,-0.0672
AAGCTGAA,-0.111
CATACACG,-0.147
ATGTGTGC,-0.0191
CCGTAGTA,0.167
GCGCTGCC,0.339
CCGAGTTC,0.036
GACTCTAA,-0.183
AGTTAGTG,-0.183
AAATTCTC,-0.158
AGCCGGGG,0.173
GTGACTAA,-0.0191
AACGAATC,-0.0914
CCCAGAAC,-0.175

# Series 4
# Target: RNA binding protein fox-1 homolog 2, RRM domain, GST-SBP tag (RBFOX2, Homo sapiens, UniProt O43251-10, residues 100-194)
# Technique: RNA Bind-n-Seq
# Form: RNA
# Matrix: in vitro
# Tested at: 365 nM
# Setting: natural RNA segment, single round, ends assumed
# Reference: no-protein control
# Direction: higher = stronger binding
# All sequences stand within: GGGAGUUCUACAGUCCGACGAUC … UGGAAUUCUCGGGUGCCAA
# Construct (chain): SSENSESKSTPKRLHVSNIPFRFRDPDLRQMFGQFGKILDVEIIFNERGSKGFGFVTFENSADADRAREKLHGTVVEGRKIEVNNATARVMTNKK
Sequence,RBNS enrichment (R)
GAAAGAUGUAGCAGCAUAUUCACUAUCCGUUAAUCCUUCUUUCUUUGAGGCUGGAACUUGCUCUCUCUGCCCCUAUUUCCUUGUAAAGAGGGAGCACAUUGACUUGGGAA,0.276
UCCCUCUGCUGCCGCCUCUGUCUGGAAAUUGGACCAGAAUUCUGAUGUCCCUCCAGCCUCCUCCCCCUCCUCUGCUGGCUCUGGCAACAGAUCCUGGGAUAUGGUAAUUG,0.731
ACCAAAGAACCAGAAACUUAAUUUUGGUUAAAUUAUUUAUUUAUUUCAUGCAUUAAUUUUCUUUUUCUUUUUAAAGGUUUAGAUGAGGCUCCUUAGGGAGUCUCUAAAAC,0.408
CUUUCAUUUUAAAGGUUAUUUGCCCUCAAUUAUAUAAUUUCAGUGUUAUAAAGUUUAGCUUAAACUCCUUUGCAAUAAUUUAUUUGACAGAACUCCAUUCUAAAACCAUG,0.481
UUAAGGGUUAGCUUUGAGUAUGUUACUGUCCUUCUAUGACAAGACCAAAGGAACAAACUCCUUGGUGAAUCUGGAGUUCAGCUUUAGUUUUCAAACACAAUCUGAAAUCU,0.333
GUAAGGCUAGAGCCCAGGUCUGCCGACACCCUGUGCUUGUUGCACACUUGAUUUGCUAAGGCUGGAGACAGGCACCAUUGCCAUGGGGCUGGUCCUAGUCACUGGCCGAG,0.483
GGCACUGUUGAGUGUCUGCUGGGGACCUGACUUUACCAGUUUCCUGAAUGGCGCCUCCCCACCUCAUUUCUGGAGUUGCAAUGGUCUCAACUCCCAUCUGAGGUGGGUAC,0.356
GCUCUAAGCUACCAAAGUUAUUCUGAAAGUAUGGGAACUGCUACAACUAACAAACAUUUGUUUCCAAGCCUGUCAUUAAGAGUCUGCAUCAAGAGAUUUGUCCUCCUUGG,1.04

# For quick reference, copied from above (series 3):
Sequence,E-score
AGTGTAGC,0.0201
GCGCTATA,0.302
AACTTAAC,-0.118
AAGCACAG,-0.0902
ACCTGTAG,-0.0672
AAGCTGAA,-0.111
